Measurements of several laboratories.
Parts stem from different laboratories: compare values within a part only.

Study 1
Target: Interferon regulatory factor 5, full length, phosphomimetic (IRF5, Homo sapiens, UniProt Q13568-2, residues 1-514, K96S/S451D/S453D/S456D/S462D)
Method: protein-binding microarray
Form: double-stranded DNA, one strand shown
Sample: in vitro
Tested at: 250 nM
Setting: 60-bp whole probe
Together with: salmon DNA 0.4 mg/ml
Reference: random background probes
Direction: higher = stronger binding
Constant ends, left off below: GCCTAGCAC … GTCTTGATTCGCTTGACGCTGCTG
| Strand | log fluorescence [z-score] |
| --- | --- |
| GAGGATTTCAGTCTCGAGACGTGCTAG | 0.898 |
| GACGGTATCCTTATCCCGACGTGCTAG | 0.00233 |
| GACGATATCAGTTTCGAGAAGTGCTAG | 7.05 |
| GACGGTTTCGGTCTCGGTACGTGCTAG | 9.58 |
| AGGCCCTTTGCTTTCCTGATGTGCTAG | -0.000322 |
| CACGGACTGCTTCTCCTGACGTGCTAG | -0.543 |
| TATTGTGTCAACTTTCTCTGCGTGCTA | 1.1 |
| TCCCATTCTGAATTCGAATGGTGCTAG | 0.204 |
| GACGGACTGGAATTTCGGGACGTGCTA | 0.887 |
| TTACTTCCCAATTGTCTTTTCGTGCTA | 1.6 |
| TTAGGTATCGGGTCTCGGTTAGTGCTA | 3.28 |
| TTAGGTATCGGGTTTCGGGTAGTGCTA | 6.34 |
| AACGGACTGGACACTGGGGACGTGCTA | -0.387 |
| GACGGTATAGGACTGGGGACGTGCTAG | -0.284 |
| ACATATTTGTTTCCATTTTCGTGCTAG | 2.65 |
| GGAAATTCCAAGTTCATGGGGTGCTAG | 0.0675 |
| TCAGGTATCGACTTTCGGTTAGTGCTA | 10.4 |

Study 2
Target: TAR DNA-binding protein 43, full length, His tag (TARDBP, Homo sapiens, UniProt Q13148, residues 1-414)
Method: RNA Bind-n-Seq
Form: RNA
Sample: in vitro
Tested at: 20 nM
Setting: 6-mer, flanks averaged, single round
Together with: 150 mM KCl
Reference: input library
Direction: higher = stronger binding
| Strand | 6-mer enrichment (R) |
| --- | --- |
| ACGCUG | 0.821 |
| UUCCGU | 0.591 |
| UGCCUC | 0.627 |
| GUCGUC | 0.787 |
| CCCACG | 0.713 |
| AAUUGU | 0.662 |
| GCGGGC | 4.49 |
| CCCAAC | 0.624 |
| GGUUGG | 3.22 |
| UACGUU | 0.592 |
| GAAACC | 0.663 |
| GUAUAA | 0.749 |
| GGUUAG | 1.52 |
| UGUUAU | 0.704 |
| CCUCCA | 0.596 |
| CACCUU | 0.631 |
| GAGCUA | 0.824 |
| AAUGCA | 0.737 |

Study 3
Target: Fragile X messenger ribonucleoprotein 1, C-terminal low-complexity region (Fmr1, Mus musculus, UniProt P35922)
Method: RNA Bind-n-Seq
Form: RNA
Sample: in vitro
Tested at: 200 nM
Setting: whole 134-nt RNA, ends assumed
Together with: 150 mM LiCl
Reference: input library
Direction: higher = stronger binding
All molecules: 7-deaza-guanosine replaces G
Constant ends, left off below: GGGAGUUCUACAGUCCGACGAUC … UGGAAUUCUCGGGUGUCAAGG
| Strand | log2 enrichment |
| --- | --- |
| CCUGUGCUACACAUCGUAUGUACCGAAUCGGGUUUUUGGGAAAAAAAGGGUUUUUUUGGGAAAGUAUUAUGUUACGCCGUUCGGAUCUGC | -2.8 |
| UGGCCCUGGUGGCAUGCGGGGAGGAACAGGUGGCCUCAUGGAUCGUGGUGGUCCCGGUGGAAUGUUCAGAGGUGGCCGUGGUGGAGACAG | -0.202 |
| UAUGCCACGCCCUUUGAGGACUCGAAGAUCAUGGUCUCUGACUUUGGACUCUCCAAAAUCCAGGCUGGGAACAUGCUAGGCACCGCCUGU | -0.24 |
| UCCUGUGCUACACAUCGUAUGUACCGAAUCGGGGUGGGGUUUUUUUGGGGUUUUUGGGGAAAGUAUUAUGUUACGCCGUUCGGAUCUGCA | -0.403 |
| UCAAGUCCUGUGCUACACAUCGUAUGUACCGAAUCGGGAAAGGGGAAAGGAAAGGAAAGUAUUAUGUUACGCCGUUCGGAUCUGCACUUC | -1.84 |
| AAGUCCUGUGCUACACAUCGUAUGUACCGAAUCAAACCCAAAUUUAAAUUUUUAAAAAAGUAUUAUGUUACGCCGUUCGGAUCUGCACUU | -0.682 |
| GUCCUGUGCUACACAUCGUAUGUACCGAAUCGGGUUUUUGGUUUUUGGGGUUUUUGGGGAAAGUAUUAUGUUACGCCGUUCGGAUCUGCA | -0.929 |
| CCUGUGCUACACAUCGUAUGUACCGAAUCGGGGUUUUUUGGUUUUUUGGGGUUUUUUGGGAAAGUAUUAUGUUACGCCGUUCGGAUCUGC | -1.42 |
| UCCUGUGCUACACAUCGUAUGUACCGAAUCGGGGUUUUUUGGUUUUUUGGGGUUUUUUGGAAAGUAUUAUGUUACGCCGUUCGGAUCUGC | -0.409 |
| UCCUGUGCUACACAUCGUAUGUACCGAAUCGGAAAAAAAGGAAAAAAAGGAAAAAAAGGAAAGUAUUAUGUUACGCCGUUCGGAUCUGCA | -0.592 |
| AGUCCUGUGCUACACAUCGUAUGUACCGAAUCGGUUUUUGGUUUUUUUGGUUUUUGGAAAGUAUUAUGUUACGCCGUUCGGAUCUGCACU | -2.05 |

Study 4
Target: RNA binding protein fox-1 homolog 2, RRM domain, GST-SBP tag (RBFOX2, Homo sapiens, UniProt O43251-10, residues 100-194)
Method: RNA Bind-n-Seq
Form: RNA
Sample: in vitro
Tested at: 365 nM
Setting: natural RNA segment, single round, ends assumed
Reference: no-protein control
Direction: higher = stronger binding
Constant ends, left off below: GGGAGUUCUACAGUCCGACGAUC … UGGAAUUCUCGGGUGCCAA
Target sequence (chain): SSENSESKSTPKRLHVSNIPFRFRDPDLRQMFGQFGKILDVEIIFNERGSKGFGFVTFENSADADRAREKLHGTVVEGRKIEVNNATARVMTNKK
| Strand | RBNS enrichment (R) |
| --- | --- |
| UCUCAUGUUCUGGCAUCCACAUAAUUCUUGUUUUCUCUGACUUAUAGCUAAAGAAAUUUUUGUGGUUUCUCUGCUUAUGGUUUUGAGUUACUCUUUGUUCAGUAAUGCAC | 0.253 |
| CGGGUGAAGGGCUCAGCCUUCUCACCCAUCCCUCAUUGCUGGAACCAAGUGCCAAGACUACCACAACCAUCAGCUACAACUGCAACCUGAGAAAACAGACAUCACCCUCU | 0.328 |
| CCUCUGAAAGAGAAGGAGUGCAGGAGAGUAAGUCUCUCAAGGACGUUCAACAAAGGACCAGCAGCAUCUUAUCAGGCGAUCCUCAGAGGCUCCAAGGAGCAUUGGAGAGA | 0.518 |
| GGGUGAGCCCUGCUGUGAGAGUUCAGGCCCUGGGAGGCUCAGCCACCUCCUCUUGUGGGAAGGAGGUCUCAGCCCCACCUCGCAUCUUCACCUGCCCUUGGUGUGGACAC | 0.357 |
| CCAAUCACAAAAGCGGCGUUGGGUCAGGGCUAGGCUUAGAGGUGAAGCAUCAACAUGGAACCAUCUCAGGAAGCCGCAUCGCCUCUUCCGAGGUCCUCACUUCCAGGAGC | 0.522 |
| CCUUCUGGCCAAUUUAAGGAGAAGCAUUGAGGGGCCCUGAAAGGAGUCACUUCCAGUCCUCCUCAGAGGAUGUGAUGGUGGUAGGAGAGCCAACUCUGAUGGGAGGUGAG | 0.511 |
| CCUAACAAGCAAUCUGGGACCUGAUUUUCCACCUUUUUUCUCUUUUCUUCCCUUCCUUUGUUUUCAUAAGCCUUUGGUAUCUUUCCUGCCCUUUUCCUUUGUGUACUCUA | 1.35 |
| CAAGUCCCUGCCGGGCUCCGCCUUUCCCCCACCCUGGCUCUCAGGGUGACGCCACCCACAGAGAUUUAAUGAGCGUGGGCCUGGACCUUCCCCAGAUGCUGCCAGGCAGC | 0.253 |
| GAAGCCCUACCAGGCUUCCCAGCAGCGCCACCUUCAGGCAGGAGUCAGAACUGUCCCCUUGGAGAUGUGACUGUGUUUGUAACAAUAUUGUCCUCACUGCCGUGGACACG | 0.29 |
| AAGAAAACAGUCACUGCAUUUAUCUCUGUGAGUCUUUGUUCAGAGAGGCCUUUAGUCUAGAUUCUGCCAGCUGUGCCACACUCUGCACUAAAGAUAUCAGAGCUCUUAGU | 0.578 |
| GAAAUUUCAGGCUGCUGCAAACAGCCAUACCUGGCAAGAGAAGUCUUCUAAUCUGGAAACCUGUGAAGCCUCAGCCCUUGAGAGGGCCCGAGAUGGAUCAGGGAGUUCUA | 0.267 |
| GUUCCGUGCUUGCCAACCUAGACCCUGGCAUUAGAAAUUGUUUUGUCAGCAGUCUCUGCCCUCUCGAGAGAGAUGAGCAGCCUCAACUGACGUUUCUAUUAAUGAGUUAU | 0.264 |

Study 5
Target: Histone acetyltransferase KAT6A, both winged helices, GST fusion (KAT6A, Homo sapiens, UniProt Q92794, residues 1-181)
Method: protein binding microarray
Form: double-stranded DNA, one strand shown
Sample: in vitro
Tested at: not given
Setting: 8-mer, flanks averaged, mean of 2 arrays, mostly near background
Reference: not given
Direction: higher = stronger binding
Residues (chain): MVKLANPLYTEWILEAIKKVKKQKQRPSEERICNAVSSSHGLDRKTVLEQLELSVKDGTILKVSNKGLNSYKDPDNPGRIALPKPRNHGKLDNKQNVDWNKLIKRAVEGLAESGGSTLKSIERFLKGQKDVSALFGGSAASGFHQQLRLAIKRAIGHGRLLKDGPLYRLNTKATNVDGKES
| Strand | E-score |
| --- | --- |
| TATTCAGA | -0.0305 |
| AGTCAGGG | -0.23 |
| CGAGGTTA | 0.016 |
| AGAGAGTC | -0.147 |
| ACGTTTGG | -0.0963 |
| ACGCCTTC | -0.00286 |
| ATGTCCGG | 0.152 |
| TAATATCA | -0.12 |
| GAACAACC | 0.0408 |
| CGCACTCA | 0.136 |
| CAGGTGAA | -0.207 |
| AATCTTTC | -0.00798 |
| ATGGGACG | -0.084 |
| AATGTGAC | 0.03 |
| CCCGTCCA | 0.238 |
| GGTCTTAA | 0.0285 |
| ACTAAAGA | -0.189 |

Mixed results
| Molecule | target | assay | system | setting | how to read | measurement | value |
| --- | --- | --- | --- | --- | --- | --- | --- |
| PhoQ, residues 284 288 289 292 302 303 AMDMFI | PhoP, residues 12 14 15 18 19 LHSVQ (Escherichia coli, UniProt P23836) | Sort-seq, item: YFP reporter | E. coli | PhoQ-PhoP variant library, together with: 10 µM Mg2+ | reference: high Mg2+ state, higher = stronger signaling | fold induction | 0.64 |

Excerpt of the above (study 5):
| Strand | E-score |
| --- | --- |
| CGAGGTTA | 0.016 |
| AGAGAGTC | -0.147 |
| ACGTTTGG | -0.0963 |
| ACGCCTTC | -0.00286 |
| ATGTCCGG | 0.152 |
| TAATATCA | -0.12 |
| GAACAACC | 0.0408 |
| CGCACTCA | 0.136 |
| CAGGTGAA | -0.207 |
| AATCTTTC | -0.00798 |
| ATGGGACG | -0.084 |
| AATGTGAC | 0.03 |
| CCCGTCCA | 0.238 |
